Experimental data from different studies.
Compare with care: the assays were run in different laboratories. ± marks the error that the study gave.

N=C(N)NCCC[C@@H]1NC(=O)[C@H](CCCCNC(=O)CCOCCOCCOCCOCCNC(=O)CN2CCN(CC(=O)O)CCN(CC(=O)O)CCN(CC(=O)O)CC2)NC(=O)[C@@H](Cc2ccccc2)NC(=O)[C@H](CC(=O)O)NC(=O)CNC1=O [indium-111 labelled] — tissue uptake (female athymic nude mice, muscle; intravenous, 3 µCi, 24 h, U-87 MG glioma xenograft): 0.19 ± 0.04 %ID/g
CCCC[C@H](NC(=O)CCCCCCCNC(=O)c1ccc(NN)nc1)C(=O)N[C@H]1CC(=O)NCCCC[C@@H](C(N)=O)NC(=O)[C@H](Cc2c[nH]c3ccccc23)NC(=O)[C@H](CCCNC(=N)N)NC(=O)[C@@H](Cc2ccccc2)NC(=O)[C@H](Cc2c[nH]cn2)NC1=O [technetium-99m labelled] — tissue uptake (C57 mouse, B16/F1 melanoma, tumor; 2 h, together with: L-lysine 12 mg co-injected): 25.9 ± 6.8 %ID/g
N=C(N)NCCC[C@@H]1NC(=O)[C@H](CCCCNC(=O)CC[C@H](NC(=O)CCOCCOCCOCCOCCNC(=O)CN2CCN(CC(=O)O)CCN(CC(=O)O)CCN(CC(=O)O)CC2)C(=O)NCCCC[C@@H]2NC(=O)[C@@H](Cc3ccccc3)NC(=O)[C@H](CC(=O)O)NC(=O)CNC(=O)[C@H](CCCNC(=N)N)NC2=O)NC(=O)[C@@H](Cc2ccccc2)NC(=O)[C@H](CC(=O)O)NC(=O)CNC1=O [indium-111 labelled] — tissue uptake (female athymic nude mice, muscle; intravenous, 3 µCi, 0.5 h, U-87 MG glioma xenograft): 1.17 ± 0.26 %ID/g
CCCC[C@H](NC(=O)CNC(=O)CNC(=O)c1ccc(NN)nc1)C(=O)N[C@H]1CC(=O)NCCCC[C@@H](C(N)=O)NC(=O)[C@H](Cc2c[nH]c3ccccc23)NC(=O)[C@H](CCCNC(=N)N)NC(=O)[C@@H](Cc2ccccc2)NC(=O)[C@H](Cc2c[nH]cn2)NC1=O [technetium-99m labelled] — tissue uptake (C57 mouse, B16/F1 melanoma, intestines; 2 h, together with: L-lysine 12 mg): 0.51 ± 0.15 %ID
CC(C)C[C@H](NC(=O)[C@H](Cc1ccc(O)cc1)NC(=O)[C@@H](CCCNC(=N)N)NC(=O)[C@@H](CO)NC(=O)[C@H](Cc1ccccc1)NC(=O)[C@H](CC1CCCCC1)NC(=O)[C@H](CC(=O)O)NC(=O)CCC(C(=O)O)N1CCCN2CCN(CCCN(CC(=O)O)CC2)CC1)C(=O)N[C@@H](Cc1c[nH]c2ccccc12)C(=O)N[C@@H](CO)C(=O)O (stereo partly drawn) [copper-64 labelled] — tissue uptake (female NMRI nude mice, tumor; 1 h p.i.): 3 ± 0.9 %ID/g
N=C(N)NCCC[C@@H]1NC(=O)[C@H](CCCCNC(=O)CCOCCOCCOCCOCCNC(=O)CC[C@H](NC(=O)CCOCCOCCOCCOCCNC(=O)CC[C@H](NC(=O)CN2CCN(CC(=O)O)CCN(CC(=O)O)CCN(CC(=O)O)CC2)C(=O)NCCOCCOCCOCCOCCC(=O)N[C@@H](CCC(=O)NCCOCCOCCOCCOCCC(=O)NCCCC[C@@H]2NC(=O)[C@@H](Cc3ccccc3)NC(=O)[C@H](CC(=O)O)NC(=O)CNC(=O)[C@H](CCCNC(=N)N)NC2=O)C(=O)NCCOCCOCCOCCOCCC(=O)NCCCC[C@@H]2NC(=O)[C@@H](Cc3ccccc3)NC(=O)[C@H](CC(=O)O)NC(=O)CNC(=O)[C@H](CCCNC(=N)N)NC2=O)C(=O)NCCOCCOCCOCCOCCC(=O)NCCCC[C@@H]2NC(=O)[C@@H](Cc3ccccc3)NC(=O)[C@H](CC(=O)O)NC(=O)CNC(=O)[C@H](CCCNC(=N)N)NC2=O)NC(=O)[C@@H](Cc2ccccc2)NC(=O)[C@H](CC(=O)O)NC(=O)CNC1=O [indium-111 labelled] — tissue uptake (female athymic nude mice, kidney; intravenous, 3 µCi, 0.5 h, U-87 MG glioma xenograft): 10.7 ± 1.79 %ID/g
CSCC[C@H](NC(=O)[C@H](CC(C)C)NC(=O)[C@H](Cc1c[nH]cn1)NC(=O)CNC(=O)[C@@H](NC(=O)[C@H](C)NC(=O)[C@H](Cc1c[nH]c2ccccc12)NC(=O)[C@H](CCC(N)=O)NC(=O)CCCCCNC(=O)CNC(=O)CNC(=O)CNC(=O)CSC(C)=O)C(C)C)C(N)=O [technetium-99m labelled] — tissue uptake (healthy Swiss mouse, large intestine, contents removed; intravenous, 18.5 MBq, 30 min): 1 ± 0.22 %ID/g
N=C(N)NCCC[C@@H]1NC(=O)[C@H](CC(=O)NC23CNCCNCC(N)(CNCCNC2)CNCCNC3)NC(=O)[C@@H](Cc2ccccc2)NC(=O)[C@H](CC(=O)O)NC(=O)CNC1=O [copper-64 labelled] — tissue uptake (Nu/Nu mouse, male, tumour-bearing, spleen; intravenous, 10 µCi, 2 h): 1.11 ± 0.19 %ID/g
N=C(N)NCCC[C@@H]1NC(=O)[C@H](CCCCNC(=O)CC[C@H](NC(=O)CCOCCOCCOCCOCCNC(=O)CC[C@H](NC(=O)CN2CCN(CC(=O)O)CCN(CC(=O)O)CCN(CC(=O)O)CC2)C(=O)NCCOCCOCCOCCOCCC(=O)N[C@@H](CCC(=O)NCCCC[C@@H]2NC(=O)[C@@H](Cc3ccccc3)NC(=O)[C@H](CC(=O)O)NC(=O)CNC(=O)[C@H](CCCNC(=N)N)NC2=O)C(=O)NCCCC[C@@H]2NC(=O)[C@@H](Cc3ccccc3)NC(=O)[C@H](CC(=O)O)NC(=O)CNC(=O)[C@H](CCCNC(=N)N)NC2=O)C(=O)NCCCC[C@@H]2NC(=O)[C@@H](Cc3ccccc3)NC(=O)[C@H](CC(=O)O)NC(=O)CNC(=O)[C@H](CCCNC(=N)N)NC2=O)NC(=O)[C@@H](Cc2ccccc2)NC(=O)[C@H](CC(=O)O)NC(=O)CNC1=O [indium-111 labelled] — tissue uptake (female athymic nude mice, lungs; intravenous, 3 µCi, 4 h, U-87 MG glioma xenograft): 1.93 ± 0.77 %ID/g
N=C(N)NCCC[C@@H]1NC(=O)[C@H](CCCCNC(=O)CNC(=O)CNC(=O)CNC(=O)CC[C@H](NC(=O)c2ccc(NN=Cc3ccccc3S(=O)(=O)O)nc2)C(=O)NCC(=O)NCC(=O)NCC(=O)NCCCC[C@@H]2NC(=O)[C@@H](Cc3ccccc3)NC(=O)[C@H](CC(=O)O)NC(=O)CNC(=O)[C@H](CCCNC(=N)N)NC2=O)NC(=O)[C@@H](Cc2ccccc2)NC(=O)[C@H](CC(=O)O)NC(=O)CNC1=O [technetium-99m labelled] — tissue uptake (athymic nu/nu mouse, female, U-87 MG glioma xenograft, muscle; intravenous, 120 min): 1.25 ± 0.1 %ID/g
CSCC[C@H](NC(=O)[C@H](CC(C)C)NC(=O)[C@H](Cc1c[nH]cn1)NC(=O)CNC(=O)[C@@H](NC(=O)[C@H](C)NC(=O)[C@H](Cc1c[nH]c2ccccc12)NC(=O)[C@H](CCC(N)=O)NC(=O)CCCCNC(=O)CSCCSCCP(CO)CO)C(C)C)C(N)=O [technetium-99m labelled] — tissue uptake (female CF-1 mouse, whole blood; intravenous, 1 h): 0.67 %ID/g
CCCC[C@H](NC(=O)COCCOCCNC(=O)c1ccc(NN)nc1)C(=O)N[C@H]1CC(=O)NCCCC[C@@H](C(N)=O)NC(=O)[C@H](Cc2c[nH]c3ccccc23)NC(=O)[C@H](CCCNC(=N)N)NC(=O)[C@@H](Cc2ccccc2)NC(=O)[C@H](Cc2c[nH]cn2)NC1=O [technetium-99m labelled] — tissue uptake (C57 mouse, female, B16/F1 melanoma, heart; intravenous, 0.037 MBq, 2 h): 0.08 ± 0.03 %ID/g

For quick reference, copied from above:
CCCC[C@H](NC(=O)COCCOCCNC(=O)c1ccc(NN)nc1)C(=O)N[C@H]1CC(=O)NCCCC[C@@H](C(N)=O)NC(=O)[C@H](Cc2c[nH]c3ccccc23)NC(=O)[C@H](CCCNC(=N)N)NC(=O)[C@@H](Cc2ccccc2)NC(=O)[C@H](Cc2c[nH]cn2)NC1=O [technetium-99m labelled] — tissue uptake (C57 mouse, female, B16/F1 melanoma, heart; intravenous, 0.037 MBq, 2 h): 0.08 ± 0.03 %ID/g
N=C(N)NCCC[C@@H]1NC(=O)[C@H](CCCCNC(=O)CCOCCOCCOCCOCCNC(=O)CN2CCN(CC(=O)O)CCN(CC(=O)O)CCN(CC(=O)O)CC2)NC(=O)[C@@H](Cc2ccccc2)NC(=O)[C@H](CC(=O)O)NC(=O)CNC1=O [indium-111 labelled] — tissue uptake (female athymic nude mice, muscle; intravenous, 3 µCi, 24 h, U-87 MG glioma xenograft): 0.19 ± 0.04 %ID/g
